# Published values pooled from the literature.
# Numbered parts are unrelated; each lists some results of a single study.

# Sample 1 — technique: universal PBM; form: double-stranded DNA, one strand shown; medium: in vitro; tested at: not given; reading: higher = stronger binding
# Target: Sal-like protein 4, full length isoform B (SALL4, Homo sapiens, UniProt Q9UJQ4-2, residues 1-616)
# Setting: 8-mer, flanks averaged, mean of replicates
# Residues (chain): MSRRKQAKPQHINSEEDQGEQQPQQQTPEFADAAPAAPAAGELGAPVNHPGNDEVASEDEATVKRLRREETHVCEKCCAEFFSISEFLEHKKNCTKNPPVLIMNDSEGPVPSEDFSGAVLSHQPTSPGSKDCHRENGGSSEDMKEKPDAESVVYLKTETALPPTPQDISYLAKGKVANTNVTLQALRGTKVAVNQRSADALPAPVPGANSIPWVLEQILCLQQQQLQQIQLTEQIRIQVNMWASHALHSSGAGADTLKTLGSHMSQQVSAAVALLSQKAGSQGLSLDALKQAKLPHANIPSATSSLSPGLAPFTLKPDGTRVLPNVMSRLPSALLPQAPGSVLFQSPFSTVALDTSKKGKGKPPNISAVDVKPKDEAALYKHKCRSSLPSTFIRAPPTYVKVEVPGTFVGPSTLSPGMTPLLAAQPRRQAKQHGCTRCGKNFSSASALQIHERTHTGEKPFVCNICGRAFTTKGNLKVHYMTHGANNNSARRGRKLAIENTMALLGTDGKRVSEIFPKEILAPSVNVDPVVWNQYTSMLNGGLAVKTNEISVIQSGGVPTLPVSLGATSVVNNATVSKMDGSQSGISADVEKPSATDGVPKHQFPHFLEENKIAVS
Oligonucleotide,E-score
ACACCCAG,-0.301
CTAGTAAG,0.173
CTACCCGC,-0.271
GAGATCGA,-0.0513
ATTAACCC,0.124
CCTTTATA,0.264
ACTTCGGA,0.0597
GTACGAAC,0.185

# Sample 2 — cell line: HEK-293T/ACE2; tested at: concentration not given; time: 16 (unit not given); reference: vehicle
SMILES,viability
NS(=O)(=O)Cc1noc2ccccc12,94.4%
Nc1nc(F)nc2c1ncn2[C@@H]1O[C@H](CO)[C@@H](O)[C@@H]1O,100%
CC#CCn1c(N2CCC[C@@H](N)C2)nc2c1c(=O)n(Cc1nc(C)c3ccccc3n1)c(=O)n2C,108%
C[C@@](Cc1ccc(O)c(O)c1)(NN)C(=O)O,106%

# Sample 3 — technique: RNA Bind-n-Seq; form: RNA; medium: in vitro; tested at: 365 nM; reference: no-protein control; reading: higher = stronger binding
# Target: RNA binding protein fox-1 homolog 2, RRM domain, GST-SBP tag (RBFOX2, Homo sapiens, UniProt O43251-10, residues 100-194)
# Setting: natural RNA segment, single round, ends assumed
# All sequences stand within: GGGAGUUCUACAGUCCGACGAUC … UGGAAUUCUCGGGUGCCAA
# Construct (chain): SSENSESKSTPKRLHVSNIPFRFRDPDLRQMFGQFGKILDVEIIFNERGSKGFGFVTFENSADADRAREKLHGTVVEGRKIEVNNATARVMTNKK
Oligonucleotide,RBNS enrichment (R)
GAAAUUUUGUACAUUGCUUUUCCCACCUUUUCCUUUUUCUUCUUUCUUGUCUGUAUUGGUUUUUGAUCACGGCCUGGUGUUGUGAUACUGGGAAGAGCAUUAGCCAAGAA,0.849
UGGCACUCGCUGAAGAAUCUGGAAGGUUGCGGUUUGCUCUUCCAGUGUUCGGGGGCCUCUGGCUGCUGAAGGAUUCGGUCUACCACGGAGGGCUGUGCUGUUAGGCUGCA,1.31
AAGAUAUAUGCUGCUGUGAAGAUAGAUGAGUGGGUGGACCAACGCUGGGCCCACUGGAUCCUCGACAGGAAGCCACCCUGCGUGGGGACUGCAGGCACACAAAAUAAAAU,0.556
GGAGGGCCUGUGUGAGUUACGCCCCUUUCCACACGCCGCUGCCCCAGCAACCCUGUUCACGCUCCACCUGUCUGGUCCAUAGCUCCCUGGAGGCUGGGCCAGGAGGCAGC,0.29
CAGAACUUUCUGAGCUGGCAAAGGCUUAAACAUCUGCCUGGGUUCAGCAGGCAACCUGCCCGUCUGUACAAAAAACUCAAAGGGCUGAGAUGAACGUCUUUCCUCUCCUG,0.213
UGGCCUGGUGACCUCUAGGACCAAAGUCUUCCUGGAGCUGACCUCUAUGGUGUGGAGUGGUGGCAGAAGACUCUGAAAGGGAAGAAAUUGGCAAAGCUGCAGCUUUUUCC,0.969
CUCCCAGCUGCCCUCCUGCUUCGGGCCUGGGCCGAGGGCCUUGUGUAGGCCAUGUUCCUCGGGCAGCUGCCCCGGGCCGGAGCUGGGCACUCCAGCGGCCCUGGCGCGUG,0.415
GUACGGUCUGAAGUUAUGUCUAGAUAAGACUUCAGACGUCCUGGGAUUGAAAGAAUGUGUGUGAAGGGGUAGAAUUUGUGCGGUAAAGACUUAAAAAAAAAAGUAGGGAG,5.79

# Sample 4 — technique: protein binding microarray; form: double-stranded DNA, one strand shown; medium: in vitro; tested at: not given; reference: not given; reading: higher = stronger binding
# Target: Histone acetyltransferase KAT6A, winged helix 2, GST fusion (KAT6A, Homo sapiens, UniProt Q92794, residues 85-181)
# Setting: 8-mer, flanks averaged, mean of 2 arrays, mostly near background
# Construct (chain): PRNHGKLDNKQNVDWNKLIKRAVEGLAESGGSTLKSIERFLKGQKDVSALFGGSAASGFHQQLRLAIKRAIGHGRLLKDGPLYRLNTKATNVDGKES
Oligonucleotide,E-score
ACTTCGGA,0.0464
ACGTGTGA,-0.152
CACTATCC,-0.0527
TCAAATGA,-0.0492
ATTGTTAC,-0.0679
AAGTACAC,-0.0415
CGCAAGTA,-0.00698
ACAATGTA,0.0186

# Sample 5 — action: inhibitor; tested at: 20 µM
# Target: Replicase polyprotein 1ab, nsp13 helicase (rep, Severe acute respiratory syndrome coronavirus 2, UniProt P0DTD1)
SMILES,inhibition [%]
CCn1c(=O)c(-c2ccc(Cl)cc2Cl)cc2cnc(Nc3ccc(N4CCNCC4)c(F)c3)nc21,-2.73
CC(=O)N1CCN(C)CC1,-1.59
COc1ccc([C@H]2CNC(=O)C2)cc1OC1CCCC1,-0.56
CS(=O)(=O)c1ccc(-c2cnc(N)c(C(=O)Nc3ccccc3)n2)cc1,2.66
C[C@]12C=CC(=O)N[C@@H]1CC[C@@H]1[C@@H]2CC[C@]2(C)[C@@H](C(=O)Nc3cc(C(F)(F)F)ccc3C(F)(F)F)CC[C@@H]12,10.1
CC(=O)C(=O)O,1.72
CC(C)(CCCCCCCCCCC(C)(C)CC(=O)O)CC(=O)O,6.58
CN1C[C@@H]2c3ccccc3Oc3ccc(Cl)cc3[C@H]2C1 (racemic),2.66
O=C(O)CCCCC(=O)O,-3.94
COc1ccc2ccc(=O)oc2c1CC=C(C)C,13.5
O=C(O)C1CCCN(CCC=C(c2ccccc2)c2ccccc2)C1 (stereo not drawn),2.62
CCC1(c2c[nH]cn2)Cc2ccccc2C1,5.31
CCCCCCC[N+](CC)(CC)CCCCc1ccc(Cl)cc1,-1.39
N[C@@]1(C(=O)O)CC[C@H]2[C@H](C(=O)O)[C@H]21,5.77
O=c1[nH]c2ccccc2n1C1CCN(CCCC(c2ccc(F)cc2)c2ccc(F)cc2)CC1,-1.06
O=C(NCCCN1CCOCC1)c1cnn2c(-c3ccccc3)cc(-c3ccccc3)nc12,4.63
Oc1ccc(OC2CCCCO2)cc1 (stereo not drawn),10.1
COc1ccc(C(=O)/C(Br)=C\C(=O)O)cc1,10.7
CN[C@H](CNC(=O)N1CCC[C@@H]([C@@H](OCCNC(=O)OC)c2cccc(Cl)c2)C1)C[C@H]1CCCOC1,1.37
CSc1nc2cc(Cl)c(Oc3cccc(Cl)c3Cl)cc2[nH]1,6.2
CNC(=O)CN1CCC(Oc2cc3c(Nc4cccc(Cl)c4F)ncnc3cc2OC)CC1,4.4
NCCNc1ccc(NCCN)c2c1C(=O)c1ccncc1C2=O,92.3
CNCCCN1c2ccccc2CCc2ccccc21,4.46
CCN(CC)C(=O)[C@]1(c2ccccc2)C[C@@H]1CN (racemic),6.99
[NH-]c1c[n+](N2CCOCC2)no1,3.4

# Sample 6 — observed: enzyme activity; action: inhibitor; tested at: 20 µM; setting: hit confirmation
# Target: Replicase polyprotein 1ab, main protease (rep, Severe acute respiratory syndrome coronavirus 2, UniProt P0DTD1)
Compound,inhibition [%]
Cc1cc(-c2cc(O)ccc2Cl)cc2nnc(Nc3ccc(OCCN4CCCC4)cc3)nc12,26.7
Nc1c[n+](N2CCOCC2)no1,60.4
O=C1/C(=C/c2ccccc2)C(NC2CCCCC2)c2ccccc21 (stereo not drawn),22.9
NC(CN(O)N=O)C(=O)O (stereo not drawn),3.5
